Results gathered from unrelated publications.
Every numbered part comes from another study and shows a few of its results, in no order. Several values in a cell are separate wells, animals, samples, runs or records. ± gives the spread as reported.
Chain of UniProt P41143 (whole entry, looked up): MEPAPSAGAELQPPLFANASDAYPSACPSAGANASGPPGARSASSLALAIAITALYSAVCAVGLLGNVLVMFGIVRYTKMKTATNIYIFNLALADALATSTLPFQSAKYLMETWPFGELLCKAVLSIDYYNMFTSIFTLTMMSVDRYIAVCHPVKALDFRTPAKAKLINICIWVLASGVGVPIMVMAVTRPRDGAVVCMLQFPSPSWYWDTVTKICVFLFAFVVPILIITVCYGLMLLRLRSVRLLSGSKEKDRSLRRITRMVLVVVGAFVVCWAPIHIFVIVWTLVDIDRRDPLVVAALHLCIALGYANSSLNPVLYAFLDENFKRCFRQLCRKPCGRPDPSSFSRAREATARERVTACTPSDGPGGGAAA

Series 1 — species: mouse, S. aureus infection; route: subcutaneous
SMILES: CCCCC[C@@H](O)CC(=O)N[C@H]1COC(=O)[C@H](CO)NC(=O)[C@H](Cc2ccccc2)NC(=O)[C@@H](Cc2c[nH]c3ccccc23)NC(=O)[C@@H](C(C)O)NC(=O)[C@H](CC(N)=O)NC(=O)[C@@H](C(C)C)NC(=O)[C@H](CC(C)C)NC(=O)[C@@H](Cc2ccc(O)cc2)N(C)C(=O)CNC(=O)[C@H](CO)NC(=O)[C@@H](CC(N)=O)NC1=O (some centres unmarked)
dose	time	survival [%]
30 mg/kg	day 5	100
60 mg/kg	day 0	100
10 mg/kg	day 5	60
10 mg/kg	day 1	60

Series 2 — read-out: binding
Structure (SMILES): O=C1CC[C@H](Nc2ccc(N3CCNCC3)c(F)c2)C(=O)N1
Target: Protein cereblon (CRBN, Homo sapiens, UniProt Q96SW2)
Chain of UniProt Q96SW2 (whole entry, looked up): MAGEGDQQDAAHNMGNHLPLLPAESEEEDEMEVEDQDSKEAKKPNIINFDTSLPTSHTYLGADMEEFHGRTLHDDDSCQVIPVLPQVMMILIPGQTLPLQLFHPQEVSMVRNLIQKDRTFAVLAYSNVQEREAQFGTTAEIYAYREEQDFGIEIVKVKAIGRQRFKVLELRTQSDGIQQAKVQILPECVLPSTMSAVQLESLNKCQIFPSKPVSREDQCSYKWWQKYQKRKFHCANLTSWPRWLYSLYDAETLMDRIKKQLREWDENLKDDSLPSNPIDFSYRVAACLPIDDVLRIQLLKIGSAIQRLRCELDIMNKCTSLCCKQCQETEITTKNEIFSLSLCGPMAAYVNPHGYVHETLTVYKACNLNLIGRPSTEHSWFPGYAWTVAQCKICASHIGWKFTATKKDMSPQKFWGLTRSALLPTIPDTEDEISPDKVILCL
concentration	inhibition
30000 nM	102% and 98.7%
1111.11 nM	72.3% and 77.1%
3333.33 nM	92.1% and 88.3%

Series 3 — cell line: human cells
SMILES: N=C(N)NCCCCCN1CC[C@]23c4c5ccc(O)c4O[C@H]2c2nc4ccccc4cc2C[C@@]3(O)[C@H]1C5
target	Emax
Delta-type opioid receptor, with Gi2 (OPRD1, Homo sapiens, UniProt P41143)	76 ± 6%
Delta-type opioid receptor, with GoB (OPRD1, Homo sapiens, UniProt P41143)	90 ± 4%
Delta-type opioid receptor, with Gz (OPRD1, Homo sapiens, UniProt P41143)	97 ± 3%
Delta-type opioid receptor, with Gi3 (OPRD1, Homo sapiens, UniProt P41143)	94 ± 3%
Delta-type opioid receptor, with GoA (OPRD1, Homo sapiens, UniProt P41143)	82 ± 3%

Series 4 — species: Crbn I391V mouse, MC-38 tumour
SMILES: Cn1cc(-c2cccc(CN3CCC4(CC3)COc3c4ccc4c3CN([C@H]3CCC(=O)NC3=O)C4=O)c2)cn1
route	dose	time	notes	added	body weight change
oral, daily	30 mg/kg	day 19	anti-PD1 combination study		2.5% and 1% and 5.6% and 4.2% and -4.7%
oral	30 mg/kg once daily	day 18			-2% and -3.8% and -0.5% and 0.4% and -1.4%
oral, daily	30 mg/kg	day 8	anti-PD1 combination study		-0.7% and 1.1% and -1% and 3.4%
oral, daily	30 mg/kg	day 25	anti-PD1 combination study		2.4% and 0% and -6% and -0.7% and 6.1% and 3.7% and 3%
	30 mg/kg	day 6		anti-LAG3 antibody 10 mg/kg weekly	-1.2% and -0.4% and 4.7% and -4.6%
	30 mg/kg	day 36		anti-LAG3 antibody 10 mg/kg weekly	4.9% and -1.4% and 5.3%
oral, daily	30 mg/kg	day 28	anti-PD1 combination study		3.7% and 13% and -0.7% and 8.6% and -4%
oral, daily	30 mg/kg	day 5	anti-PD1 combination study		-2.2% and 6% and 4.5% and 5.7% and 4.9%
	30 mg/kg	day 8		anti-LAG3 antibody 10 mg/kg weekly	-4.9% and -5.1% and -12.4% and 6.6% and -1.8%
	30 mg/kg	day 27		anti-LAG3 antibody 10 mg/kg weekly	-3.8% and -0.4% and 1.6% and -3.4% and 4.9%
oral	30 mg/kg once daily	day 10			-5% and 5% and -8.1% and -2.3% and -5.7%

A few entries again (series 4):
route	dose	time	notes	added	body weight change
	30 mg/kg	day 8		anti-LAG3 antibody 10 mg/kg weekly	-4.9% and -5.1% and -12.4% and 6.6% and -1.8%
oral, daily	30 mg/kg	day 19	anti-PD1 combination study		2.5% and 1% and 5.6% and 4.2% and -4.7%
	30 mg/kg	day 6		anti-LAG3 antibody 10 mg/kg weekly	-1.2% and -0.4% and 4.7% and -4.6%
